Earlier results, collected from citations in different studies.
Lines come from different studies, so protocols differ. ± gives the spread as reported.
Sequence of UniProt P40337 (whole entry, unmodified, looked up): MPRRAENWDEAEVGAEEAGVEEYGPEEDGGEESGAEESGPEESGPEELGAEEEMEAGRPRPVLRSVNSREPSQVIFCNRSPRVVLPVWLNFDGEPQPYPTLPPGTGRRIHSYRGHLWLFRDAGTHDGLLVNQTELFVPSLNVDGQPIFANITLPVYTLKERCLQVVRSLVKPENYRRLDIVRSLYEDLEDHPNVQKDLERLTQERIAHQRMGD
Sequence of UniProt P35372 (whole entry, looked up): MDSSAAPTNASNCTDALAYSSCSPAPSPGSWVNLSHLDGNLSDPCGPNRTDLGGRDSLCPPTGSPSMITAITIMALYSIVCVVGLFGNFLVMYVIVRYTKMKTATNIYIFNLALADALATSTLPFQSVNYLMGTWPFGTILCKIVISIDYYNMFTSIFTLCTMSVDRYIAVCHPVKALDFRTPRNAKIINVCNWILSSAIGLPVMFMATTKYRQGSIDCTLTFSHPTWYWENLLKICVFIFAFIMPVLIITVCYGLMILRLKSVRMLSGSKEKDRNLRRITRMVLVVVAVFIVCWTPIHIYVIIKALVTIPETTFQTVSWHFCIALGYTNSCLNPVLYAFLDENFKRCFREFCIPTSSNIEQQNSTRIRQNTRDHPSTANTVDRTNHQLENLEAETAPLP

Structure (SMILES) | tested on | test | system | conditions | scale | endpoint | result
CC1(N(CC(=O)O)CC(=O)O)CN(CC(=O)O)CCN(CC(=O)O)C1 |  | pH-potentiometry, measured: logK4H | 0.1 M KCl | 25 °C |  | protonation constant (log) | 2.24
c1ccc2c(c1)CCNC2c1c[nH]c2cccnc12 (centres unmarked) | COLO 205 | cytotoxicity |  |  |  | IC50 | > 100 µM
O=C(O)CN1CCOCCN(CC(=O)O)Cc2cccc(n2)C1 | protonation constant |  |  | 0.15 M NaCl |  | log KH3 | 2.13
FC(F)(F)C(F)(F)c1cc(-c2cccnc2)n[nH]1 | Plasmodium falciparum formate-nitrite transporter | binding, FCCS | isolated protein |  |  | Ki | > 80 µM
Cc1ccc(S(=O)(=O)Nc2nnc(-c3ccc(Cl)cc3)s2)cc1 | WI-38 |  |  |  |  | IC50 | 137 ± 6.66 µM
c1cnc2[nH]cc(C3NCCc4sccc43)c2c1 (centres unmarked) | MRC-5 fibroblasts | cytotoxicity |  |  |  | IC50 | > 100 µM
Cn1nnnc1Sc1ncnc2scc(-c3cccc(S(C)(=O)=O)c3)c12 | PI5P4Kγ |  |  |  |  | Kd | 0.354 µM
Nc1nc2[nH]c(CCCCCCCC(=O)N[C@@H](CCC(=O)O)C(=O)O)cc2c(=O)[nH]1 | CHO RT16 (human FRα) | cell growth |  | no added folic acid |  | IC50 | 0.0085 µM
O=c1ccc(OCCCN2CCCCC2)nn1-c1ccc(Cl)c(Cl)c1 | Mu-type opioid receptor (OPRM1, Homo sapiens, UniProt P35372) |  |  | 1.0 µM |  | inhibition | 25.3 ± 2.4%
O=C(O)c1cn([C@H]2O[C@@H](CO)[C@H](O)[C@@H]2O)c2ccc(Oc3ccccc3)cc2c1=O | K562 |  |  |  |  | IC50 | 198 µM
c1ccc2c(C3NCCc4c3[nH]c3ccccc43)c[nH]c2c1 (centres unmarked) | COLO 205 | cytotoxicity |  |  |  | IC50 | 24.7 µM
O=C(Nc1cc(Cl)ccc1Cl)c1c[nH]c2ccc(Cl)cc2c1=O | ACP-03 |  |  |  |  | IC50 | 5.18 µM
O=C(C=C(O)C(F)(F)C(F)(F)F)c1ccc(NCC(F)(F)F)nc1 | Plasmodium falciparum formate-nitrite transporter | binding, FCCS | isolated protein |  |  | Ki | 0.024 ± 0.006 µM
NC(=O)c1cn([C@H]2O[C@@H](CO)[C@H](O)[C@@H]2O)c2ccc(Oc3ccccc3)cc2c1=O | K562 |  |  |  |  | IC50 | 76.8 µM
O=C(O)c1ccc([C@H]2C[C@H]3[C@@H](N2)[C@H](c2cccc(Cl)c2F)[C@]2(C(=O)Nc4cc(Cl)ccc42)N3CC2CC2)cc1 | SJSA-1 (TP53 wild type) | cell growth |  |  |  | IC50 | 0.471 µM
CNCCN(C)Cc1ccc(-c2ccc(C(F)(F)F)cc2)o1 | HepG2 | cell viability |  |  |  | IC50 | 34.5 µM
Cc1sc(-c2ccc(C(F)(F)F)cc2)nc1-c1nn[nH]c1C#N |  |  | ZDF rat | 4 mg/kg/day, 6 weeks |  | HbA1c at end of treatment | 9.14 ± 0.18%
Cc1ccc2c(c1)nc(CCN1C(=O)c3cccc4cccc(c34)C1=O)n2-c1ccncc1 |  |  | Sprague-Dawley rat | intravenous, 2.5 mg/kg |  | AUC(0-t) | 1100 ng·h/mL
O=C1NC2CCCCC2NC1c1c[nH]c2ccccc12 (centres unmarked) | COLO 205 | cytotoxicity |  |  |  | IC50 | > 100 µM

Structure (SMILES) | tested on | test | system | conditions | scale | endpoint | result
CN(C)c1ccc(S(=O)(=O)Oc2cccc(-c3nc(N)c4c(=O)oc5ccccc5c4n3)c2)cc1 | CNE-2 | cell proliferation |  |  |  | IC50 | 0.82 µM
CCCN1C(=O)/C(=C\c2cccc(OC)c2)S/C1=N/c1ccccc1 | HCT-116 |  |  |  |  | IC50 | 34.2 µM
COc1cc2c(cc1OC)C(c1c[nH]c3ccccc13)NCC2 (centres unmarked) | MRC-5 fibroblasts | cytotoxicity |  |  |  | IC50 | > 100 µM
Nc1nc2[nH]c(CCCCc3ccc(C(=O)N[C@@H](CCC(=O)O)C(=O)O)s3)cc2c(=O)[nH]1 | CHO PC43-10 (human RFC) | cell growth |  |  |  | IC50 | > 1 µM
COc1ccc(Nc2nc(Nc3ccc(OCC[18F])cc3)ncc2Br)cc1 |  |  | S180 tumour-bearing mice | intravenous, 30 min | baseline: tumour over blood | tumour to tissue ratio | 1.69
COc1ccc(-c2cc(-c3cc4ccccc4oc3=O)nc(Cc3ccc(F)cc3)n2)cc1 | A549 |  |  |  |  | IC50 | 16.1 µM
c1ccc2c(c1)CCCNC2c1c[nH]c2ncccc12 (centres unmarked) | MRC-5 fibroblasts | cytotoxicity |  |  |  | IC50 | > 100 µM
COc1ccc(-c2cc(-c3cc4ccccc4oc3=O)nc3nc(C)[nH]c(=O)c23)cc1 | MCF7 |  |  |  |  | IC50 | 2.42 ± 0.75 µM
c1ccc2c(c1)CCNC2c1c[nH]c2cnccc12 (centres unmarked) | MRC-5 fibroblasts | cytotoxicity |  |  |  | IC50 | 98.8 µM
COc1cccc(-c2nnc(Nc3ccccc3C(F)(F)F)s2)c1 | MCF7 |  |  |  |  | IC50 | 49.6 µM
Cc1ncsc1-c1ccc2c(c1)OCCOCCOC[C@@H](NC(=O)C[C@@H]1N=C(c3ccc(Cl)cc3)c3c(sc(C)c3C)-n3c(C)nnc31)COCCOCCOCC(=O)N[C@@H](C(C)(C)C)C(=O)N1C[C@H](O)C[C@H]1C(=O)NC2 | von Hippel-Lindau disease tumor suppressor, with Elongin B/C (VHL, Homo sapiens, UniProt P40337) | isothermal titration calorimetry |  | VCB titrated into compound |  | ΔH | -6.7 kcal/mol
c1ccc2c(Cc3c[nH]c4ccccc34)c[nH]c2c1 | MCF7 | cell growth |  |  |  | IC50 | 5.5 µM
O=c1oc2ccccc2cc1-c1cc(-c2ccc(Cl)cc2)nc(Cc2ccc(F)cc2)n1 | MDA-MB-231 |  |  |  |  | IC50 | 16.5 µM
C#Cc1cccc(Nc2ncnc3cc(OCCOC)c(OCCOC)cc23)c1 | C6 rat glioma |  |  |  |  | IC50 | > 100 µM
CC[C@H](C)/C=C/C=C/C=C/C(O)=C/C(=O)C(Cl)(Cl)Cl | breast angiosarcoma cells | cell proliferation |  |  |  | IC50 | < 1 µM
Nc1nc2[nH]c(CCCCCCCCC(=O)N[C@@H](CCC(=O)O)C(=O)O)cc2c(=O)[nH]1 | CHO PC43-10 (human RFC) | cell growth |  |  |  | IC50 | > 1 µM
COc1cc(-c2nc(SCc3cn(CC(=O)NC(=O)Nc4ccccn4)nn3)nc(Nc3ccc(C)cc3)c2C#N)cc(OC)c1OC | B16-F10 |  |  |  |  | IC50 | 0.032 µM
c1ccc2c3c([nH]c2c1)C(c1c[nH]c2ncccc12)NCC3 (centres unmarked) | MRC-5 fibroblasts | cytotoxicity |  |  |  | IC50 | > 100 µM
Nc1nc2sc(CCCc3ccc(C(=O)N[C@@H](CCC(=O)O)C(=O)O)cc3)cc2c(=O)[nH]1 | CHO RT16 (human FRα) | cell growth |  | no added folic acid |  | IC50 | 0.013 µM

Some of these lines once more:
Structure (SMILES) | tested on | test | system | conditions | scale | endpoint | result
O=C(O)c1cn([C@H]2O[C@@H](CO)[C@H](O)[C@@H]2O)c2ccc(Oc3ccccc3)cc2c1=O | K562 |  |  |  |  | IC50 | 198 µM
O=C(C=C(O)C(F)(F)C(F)(F)F)c1ccc(NCC(F)(F)F)nc1 | Plasmodium falciparum formate-nitrite transporter | binding, FCCS | isolated protein |  |  | Ki | 0.024 ± 0.006 µM
COc1ccc(-c2cc(-c3cc4ccccc4oc3=O)nc3nc(C)[nH]c(=O)c23)cc1 | MCF7 |  |  |  |  | IC50 | 2.42 ± 0.75 µM
COc1ccc(Nc2nc(Nc3ccc(OCC[18F])cc3)ncc2Br)cc1 |  |  | S180 tumour-bearing mice | intravenous, 30 min | baseline: tumour over blood | tumour to tissue ratio | 1.69
